Results from different studies.
Each line is one published result; not all experiments were run side by side. ± marks the error that the study gave.
DRD3: D(3) dopamine receptor (DRD3, Homo sapiens, UniProt P35462)
TNKS2: Poly [ADP-ribose] polymerase tankyrase-2 (TNKS2, Homo sapiens, UniProt Q9H2K2)

For `COc1ccc(F)cc1C(=O)NCc1ccc(-c2nn([C@@H](C)C(F)(F)F)c(N)c2C(N)=O)cc1`, the IC50 was over 10 µM (ERBB4 (Homo sapiens, UniProt Q15303); C-terminal tail phosphorylation, PathHunter functional kinase; U2OS; value is top dose tested).
The IC50 of `CC1(C)CC[C@]2(C(=O)O)CC[C@]3(C)C(=CC[C@@H]4[C@@]5(C)CCC(=O)C(C)(C)[C@@H]5CC[C@]43C)[C@@H]2C1` is reported as 2.32 ± 0.22 µM (RORC (Homo sapiens, UniProt P51449); reporter gene, inhibitor, GAL4 dual-luciferase reporter; HEK293T; 24 h).
With `Cc1cnc(-c2ccc(-c3ccc(NC(=O)Nc4c(F)cc(F)cc4F)cc3F)c3c2C(=O)NC3)[nH]1` the IC50 was 0.0144 µM (ITK (Homo sapiens, UniProt Q08881); enzyme activity, inhibitor, mobility shift; together with: ATP 1 mM).
With `Cc1ccc(NS(=O)(=O)c2c(C)[nH]c(C)c2C(=O)N2CC(F)(F)C(F)(F)C2)cc1Cl` the IC50 was over 100 µM (DRD3; Go activation, antagonist, BRET; together with: dopamine).
For `Cc1ccc(Cn2nnc3c4ccccc4c(=O)[nH]c32)cc1`, the IC50 was 0.055 µM (TNKS2; inhibitor).
`CN1CCN(c2ccc(Nc3ncc4cc(C#N)c(=O)n(C5CCCC5)c4n3)cc2)CC1` gave an IC50 of 0.333 µM (DCLK2 (Homo sapiens, UniProt Q8N568)).
With `Cc1ccc(NS(=O)(=O)c2c(C(=O)N3CCC(F)(F)C3)cnn2C)cc1Cl` the IC50 was over 100 µM (DRD3; β-arrestin recruitment, antagonist, PathHunter; together with: dopamine EC80).
For `O=C(NO)c1cncc(OS(=O)(=O)Oc2ccc(C(F)(F)F)cc2)c1`, the IC50 was 4.26 µM (Histone deacetylase 3, with NCoR2 DAD (HDAC3, Homo sapiens, UniProt O15379); enzyme activity, inhibitor, fluorogenic; together with: substrate 20 µM).
`CC[C@@H]1[C@H](F)C(=O)N[C@@H]1COc1nccc2cc(C(N)=O)c(OC)cc12` gave an IC50 of over 5 µM (CDK2 (Homo sapiens, UniProt P24941); ATP probe binding, KiNativ profiling, measured: Lys1 probe site; THP-1 cell lysate).
`CC[C@H](C)[C@H](NC(=O)[C@@H](N)CC(C)C)C(=O)N[C@@H](CCCCN)C(=O)N[C@H](C(=O)N[C@@H](CCCCN)C(=O)N[C@@H](CCCNC(=N)N)C(=O)N[C@@H](CCCCN)C(=O)N[C@@H](CCCNC(=N)N)C(=O)N[C@@H](CCCCN)C(=O)N[C@@H](CCCCN)C(=O)O)[C@@H](C)O` has an IC50 of 1 µM (Coagulation factor V, activated factor Va (F5, Homo sapiens, UniProt P12259); prothrombinase activity, inhibitor).
`O=C(O)CC(=O)C(=O)O` gave an IC50 of over 1000 µM (HIF1AN (Homo sapiens, UniProt Q9NWT6, Q147A); enzyme activity, inhibitor; pH 7).
`COc1cccc2c(N3CCC(CCP(=O)(O)O)CC3)ncnc12` has an IC50 of 0.0006 µM (ENPP1 (Homo sapiens, UniProt P22413); cGAMP hydrolysis, inhibitor; overnight, together with: cGAMP 2 µM).
With `Cc1[nH]c(C)c(S(=O)(=O)Nc2ccnc3c(C(F)(F)F)cccc23)c1C(=O)N1CCC(F)(F)C1` the IC50 was over 100 µM (DRD3; β-arrestin recruitment, antagonist, PathHunter; together with: dopamine EC80).
`COc1c([C@H]2[C@H](C(=O)Nc3ccnc(C(N)=O)c3)O[C@@](C)(C(F)(F)F)[C@H]2C)ccc(F)c1F` gave an IC50 of 29.6 µM (PGR (Homo sapiens, UniProt P06401); functional activity, antagonist).
For `O=C(N/N=C/c1cc2c(s1)CCCC2)c1cccs1`, the IC50 was 105 ± 9.3 µM (dxs (Deinococcus radiodurans, UniProt Q9RUB5); inhibitor; estimated).
`Cc1[nH]c(C)c(S(=O)(=O)N2CCC(F)(F)C2)c1S(=O)(=O)Nc1ccc(C(F)(F)F)c(Cl)c1` gave an IC50 of over 100 µM (DRD3; β-arrestin recruitment, antagonist, PathHunter; together with: dopamine EC80).
For `CC(C)N(CCC(=O)c1ccc2ccccc2c1)Cc1ccccc1`, the IC50 was 10 ± 2 µM (F13A1 (Homo sapiens, UniProt P00488); crosslinking activity; together with: DTT).
`COc1ccc(Cn2nnc3c4ccc(F)cc4c(=O)[nH]c32)cc1` gave an IC50 of 0.0316 µM (TNKS2; inhibitor).
`N#CSc1cc(SC#N)c(N)nc1N` gave an IC50 of 0.75 µM (USP8 (Homo sapiens, UniProt P40818)).
The IC50 of `Cc1ccc(Cn2nnc3c4ccc(F)cc4c(=O)[nH]c32)cc1` is reported as 0.0339 µM (TNKS2; inhibitor).
With `Cc1ccc(NS(=O)(=O)CCC(=O)N[C@@H](C)CC(=O)N2CCCC2)cc1Cl` the IC50 was over 100 µM (DRD3; Go activation, antagonist, BRET; together with: dopamine).
For `COc1cccc(Cn2nnc3c4ccc(F)cc4c(=O)[nH]c32)c1`, the IC50 was 0.107 µM (TNKS2; inhibitor).
The IC50 of `C=CCN(CC=C)C(=O)c1c(C)[nH]c(C)c1S(=O)(=O)Nc1ccc(C(F)(F)F)c(Cl)c1` is reported as over 100 µM (DRD3; Go activation, antagonist, BRET; together with: dopamine).
`CC(=O)OC1CC2CCC1(C)C2(C)C` (stereo not drawn) has an IC50 of over 30000 µg/mL (tyrosinase; monophenolase activity, inhibitor; pH 6.8, 37 °C, together with: L-tyrosine).
With `Cc1[nH]c(C)c(S(=O)(=O)Nc2ccc(NS(C)(=O)=O)c(Cl)c2)c1C(=O)N1CCC(F)(F)C1` the IC50 was over 100 µM (DRD3; β-arrestin recruitment, antagonist, PathHunter; together with: dopamine EC80).
`CCCCCn1nnc2c3ccccc3c(=O)[nH]c21` gave an IC50 of 0.263 µM (TNKS2; inhibitor).
With `CC(C)Oc1c(NC(=O)c2ccc(NC(=O)[C@H](CC(N)=O)NC(=O)c3cc(F)c(/N=N/c4c(F)cccc4F)c(F)c3)cc2)ccc(C(=O)N/N=C/c2ccc(C(=O)O)s2)c1O` the IC50 was over 25 µM (DNA gyrase (gyrA/gyrB, Escherichia coli, UniProt P0AES4+P0AES6); DNA supercoiling, inhibitor; 30 min, 37 °C, after 1 h irradiation at 365 nm).
The IC50 of `C[C@@H]1O[C@@H](Oc2c(-c3cc(O)c(O)c(O)c3)oc3cc(O)cc(O)c3c2=O)[C@H](O)[C@H](O)[C@H]1O` is reported as 133 ± 5.94 µg/mL (tyrosinase; enzyme activity, inhibitor; together with: L-tyrosine).
`Cc1[nH]c(C)c(S(=O)(=O)Nc2ccc(C(F)(F)F)c(Cl)c2)c1C(=O)N1C2CCC1CC2` gave an IC50 of over 100 µM (DRD3; Go activation, antagonist, BRET; together with: dopamine).
With `CNC(=O)CCOCCC(=O)N1CC2CCC(C1)C2NCc1cc(-c2cc(O)ccc2OC(F)(F)F)ccc1F` (stereo not drawn) the IC50 was about 1 µM (Estrogen receptor (ESR1, Homo sapiens, UniProt P03372, D538G)).

A few entries again:
With `Cc1ccc(NS(=O)(=O)c2c(C(=O)N3CCC(F)(F)C3)cnn2C)cc1Cl` the IC50 was over 100 µM (DRD3; β-arrestin recruitment, antagonist, PathHunter; together with: dopamine EC80).
`CC[C@@H]1[C@H](F)C(=O)N[C@@H]1COc1nccc2cc(C(N)=O)c(OC)cc12` gave an IC50 of over 5 µM (CDK2 (Homo sapiens, UniProt P24941); ATP probe binding, KiNativ profiling, measured: Lys1 probe site; THP-1 cell lysate).
For `Cc1ccc(Cn2nnc3c4ccccc4c(=O)[nH]c32)cc1`, the IC50 was 0.055 µM (TNKS2; inhibitor).
